# Results of several laboratories.
# Parts stem from different laboratories: compare values within a part only. “And” joins repeats or separate records; there may be more than shown.

# Series 1
# Target: Interleukin-1 receptor-associated kinase 1 (IRAK1, Homo sapiens, UniProt P51617)
# Sequence of UniProt P51617 (whole entry, looked up): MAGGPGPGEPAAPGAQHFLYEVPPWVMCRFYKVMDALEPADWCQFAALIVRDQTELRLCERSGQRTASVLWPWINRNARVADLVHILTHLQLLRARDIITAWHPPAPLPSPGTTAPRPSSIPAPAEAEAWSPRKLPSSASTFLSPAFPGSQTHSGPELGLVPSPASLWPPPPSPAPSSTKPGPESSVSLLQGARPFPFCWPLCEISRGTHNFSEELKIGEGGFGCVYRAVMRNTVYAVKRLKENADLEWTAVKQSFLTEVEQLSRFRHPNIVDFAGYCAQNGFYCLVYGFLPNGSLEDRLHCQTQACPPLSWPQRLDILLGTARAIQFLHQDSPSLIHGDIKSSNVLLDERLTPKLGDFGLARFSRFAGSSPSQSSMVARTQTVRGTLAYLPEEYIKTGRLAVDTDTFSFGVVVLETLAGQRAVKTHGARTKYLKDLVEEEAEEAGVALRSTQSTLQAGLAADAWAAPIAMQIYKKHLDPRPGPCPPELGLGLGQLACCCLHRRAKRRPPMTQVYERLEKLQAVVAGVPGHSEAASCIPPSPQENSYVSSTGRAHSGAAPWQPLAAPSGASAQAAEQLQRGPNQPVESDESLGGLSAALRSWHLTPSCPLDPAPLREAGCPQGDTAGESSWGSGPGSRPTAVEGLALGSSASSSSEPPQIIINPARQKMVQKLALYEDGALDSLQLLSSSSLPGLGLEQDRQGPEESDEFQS
# Observed: enzyme activity
# Action: inhibitor
# Concentration: 0.5 µM
# Relative to: control
SMILES,remaining activity [%]
Cn1cc(/C=C2\C(=O)Nc3ccc(S(N)(=O)=O)cc32)c2ccccc21,14.2
COc1ccc(-c2cnc3c(-c4ccsc4)cnn3c2)cc1,94
Cn1cnc2cc3c(Nc4cccc(Br)c4)ncnc3cc21,80.5
C[S+]([O-])c1ccc(-c2nc(-c3ccncc3)c(-c3ccc(F)cc3)[nH]2)cc1 (centres unmarked),129
CC(=O)O/N=C1/C(c2c(O)[nH]c3cc(Br)ccc23)=Nc2ccccc21,67.4
CN(C)CCCn1cc(C2=C(c3c[nH]c4ccccc34)C(=O)NC2=O)c2ccccc21,91.1
CC(C)c1nn(-c2c(Cl)cccc2Cl)c2nc(Cc3ccc(OCCO)cc3)[nH]c(=O)c12,99.2
COc1cc2ncnc(N3CCN(C(=O)Nc4ccc(Oc5ccccc5)cc4)CC3)c2cc1OC,116
O=c1cc(N2CCOCC2)oc2c1ccc1ccccc12,112
Cc1ccc(NC(=O)c2ccc(CN3CCN(C)CC3)cc2)cc1Nc1nccc(-c2cccnc2)n1,99.7
Nc1[nH]nc2nnc(-c3c(-c4ccccc4)nn4ccccc34)cc12,105
COc1ccc(Cl)cc1NC(=O)Nc1cc(C)nc2ccccc12,91.2
O=C(Nc1ccc(Cl)cc1)c1ccccc1NCc1ccncc1,117
CS(=O)(=O)CCNCc1ccc(-c2ccc3ncnc(Nc4ccc(OCc5cccc(F)c5)c(Cl)c4)c3c2)o1,98.8
Cc1nc(Nc2ncc(C(=O)Nc3c(C)cccc3Cl)s2)cc(N2CCN(CCO)CC2)n1,98.2
COc1cc2ncc(-c3ccccc3)nc2cc1OC,98.4
CCOc1cc2ncnc(Nc3cccc(Br)c3)c2cc1OCC,95.1
COc1cc2ncnc(Nc3ccc(OCc4ccccc4)cc3)c2cc1OC,97.4
CC(C)[C@H](CO)Nc1nc(Nc2cccc(Cl)c2)c2ncn(C(C)C)c2n1,109
CCN1/C(=C/C(C)=O)Sc2ccc(OC)cc21,114
O=C1NC(=O)/C(=C/c2ccc3nccnc3c2)S1,85.5
CCC(=O)Nc1ccc2ncnc(Nc3cccc(Br)c3)c2c1,92.7

# Series 2
# Target: DNA polymerase theta, ATPase domain (POLQ, Homo sapiens, UniProt O75417)
# Sequence of UniProt O75417 (whole entry, unmodified, looked up): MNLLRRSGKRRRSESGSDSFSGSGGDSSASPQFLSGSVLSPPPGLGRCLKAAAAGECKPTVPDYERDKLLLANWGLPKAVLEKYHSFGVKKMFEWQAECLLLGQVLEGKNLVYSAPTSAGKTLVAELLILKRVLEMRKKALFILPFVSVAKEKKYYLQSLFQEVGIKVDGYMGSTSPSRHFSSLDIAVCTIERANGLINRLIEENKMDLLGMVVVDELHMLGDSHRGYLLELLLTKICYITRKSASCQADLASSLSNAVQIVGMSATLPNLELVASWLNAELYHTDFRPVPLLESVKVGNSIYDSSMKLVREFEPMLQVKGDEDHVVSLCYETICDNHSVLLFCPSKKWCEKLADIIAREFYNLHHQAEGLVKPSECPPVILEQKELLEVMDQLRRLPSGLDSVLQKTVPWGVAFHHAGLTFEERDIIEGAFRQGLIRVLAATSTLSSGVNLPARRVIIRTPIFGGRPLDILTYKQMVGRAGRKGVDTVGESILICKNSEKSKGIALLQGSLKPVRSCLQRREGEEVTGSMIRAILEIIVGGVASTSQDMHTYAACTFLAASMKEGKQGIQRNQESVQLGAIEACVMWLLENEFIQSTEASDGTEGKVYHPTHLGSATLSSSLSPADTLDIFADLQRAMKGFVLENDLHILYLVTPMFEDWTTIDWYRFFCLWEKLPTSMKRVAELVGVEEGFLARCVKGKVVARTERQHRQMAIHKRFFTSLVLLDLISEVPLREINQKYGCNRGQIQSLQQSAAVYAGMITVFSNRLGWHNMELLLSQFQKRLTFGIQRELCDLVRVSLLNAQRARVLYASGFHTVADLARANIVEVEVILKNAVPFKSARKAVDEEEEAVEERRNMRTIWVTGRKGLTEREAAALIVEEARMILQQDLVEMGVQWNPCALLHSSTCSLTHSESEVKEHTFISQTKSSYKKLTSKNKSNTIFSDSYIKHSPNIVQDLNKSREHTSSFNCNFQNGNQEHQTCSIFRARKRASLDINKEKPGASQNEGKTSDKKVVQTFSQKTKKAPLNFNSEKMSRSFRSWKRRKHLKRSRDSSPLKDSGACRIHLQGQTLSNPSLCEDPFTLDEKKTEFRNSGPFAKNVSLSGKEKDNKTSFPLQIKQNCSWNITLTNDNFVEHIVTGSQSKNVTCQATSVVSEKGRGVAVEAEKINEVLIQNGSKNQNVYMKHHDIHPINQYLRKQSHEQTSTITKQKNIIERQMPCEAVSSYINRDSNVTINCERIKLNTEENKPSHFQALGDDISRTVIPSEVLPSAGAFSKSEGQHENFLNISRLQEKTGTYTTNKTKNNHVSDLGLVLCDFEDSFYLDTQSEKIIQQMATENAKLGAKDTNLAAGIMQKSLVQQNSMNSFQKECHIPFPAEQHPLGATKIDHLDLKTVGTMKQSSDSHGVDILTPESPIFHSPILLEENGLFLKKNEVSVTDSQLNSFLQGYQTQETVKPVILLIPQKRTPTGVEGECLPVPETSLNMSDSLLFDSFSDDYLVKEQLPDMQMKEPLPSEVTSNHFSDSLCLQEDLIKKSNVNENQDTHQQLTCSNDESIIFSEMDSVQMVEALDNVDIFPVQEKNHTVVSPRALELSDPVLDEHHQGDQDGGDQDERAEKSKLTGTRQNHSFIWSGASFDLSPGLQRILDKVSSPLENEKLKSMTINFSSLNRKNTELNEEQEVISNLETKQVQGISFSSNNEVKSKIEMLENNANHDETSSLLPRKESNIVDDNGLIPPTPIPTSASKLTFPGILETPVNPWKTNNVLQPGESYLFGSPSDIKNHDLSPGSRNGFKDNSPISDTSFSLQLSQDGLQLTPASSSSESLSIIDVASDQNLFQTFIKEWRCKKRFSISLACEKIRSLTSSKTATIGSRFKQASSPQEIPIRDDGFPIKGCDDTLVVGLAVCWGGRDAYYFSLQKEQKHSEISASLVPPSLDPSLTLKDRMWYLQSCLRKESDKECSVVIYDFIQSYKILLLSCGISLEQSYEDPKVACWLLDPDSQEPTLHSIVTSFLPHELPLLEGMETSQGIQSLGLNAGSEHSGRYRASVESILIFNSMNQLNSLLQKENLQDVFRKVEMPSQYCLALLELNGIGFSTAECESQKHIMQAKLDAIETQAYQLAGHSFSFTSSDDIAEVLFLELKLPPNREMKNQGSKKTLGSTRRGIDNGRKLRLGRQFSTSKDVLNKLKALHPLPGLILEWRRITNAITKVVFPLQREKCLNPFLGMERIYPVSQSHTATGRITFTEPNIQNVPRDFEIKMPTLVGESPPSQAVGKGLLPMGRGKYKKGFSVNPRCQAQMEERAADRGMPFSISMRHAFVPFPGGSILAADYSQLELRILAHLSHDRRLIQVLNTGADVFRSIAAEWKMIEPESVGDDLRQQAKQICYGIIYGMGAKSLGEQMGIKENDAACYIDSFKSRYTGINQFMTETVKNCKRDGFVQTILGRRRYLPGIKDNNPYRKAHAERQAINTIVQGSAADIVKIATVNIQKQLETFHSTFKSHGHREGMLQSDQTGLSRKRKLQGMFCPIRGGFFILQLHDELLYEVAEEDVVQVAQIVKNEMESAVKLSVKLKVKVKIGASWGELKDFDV
# Observed: enzyme activity
# Action: inhibitor
# Concentration: 77 µM
# Relative to: untreated
SMILES,remaining activity
CCN(CC)Cc1cc(Nc2ccnc3cc(Cl)ccc23)ccc1O,103%
O=C(CCCN1CCN(c2ccccn2)CC1)c1ccc(F)cc1,103%
CNC[C@@H](O)c1ccc(O)c(O)c1,88.6%
CC[C@H]1OC(=O)[C@H](C)[C@@H](O[C@H]2C[C@@](C)(OC)[C@@H](O)[C@H](C)O2)[C@H](C)[C@@H](O[C@@H]2O[C@H](C)C[C@H](N(C)C)[C@H]2O)[C@](C)(O)C[C@@H](C)/C(=N\OCOCCOC)[C@H](C)[C@@H](O)[C@]1(C)O,101% and 98.7%
CC1(C)S[C@@H]2[C@H](NC(=O)[C@H](C(=O)O)c3ccsc3)C(=O)N2[C@H]1C(=O)O,102% and 105%
Nc1ccc(CCNc2ncnc3c2ncn3[C@@H]2O[C@H](CO)[C@@H](O)[C@H]2O)cc1,102%
C[C@@H](O)[C@H]1C(=O)N2C(C(=O)O)=C(S[C@@H]3CN[C@H](C(=O)N(C)C)C3)[C@H](C)[C@H]12,101% and 95.7%
N=C(N)NCC1COC2(CCCCC2)O1 (centres unmarked),103%
CCCCCCCCCCCC1=C(O)C(=O)C=C(O)C1=O,92.9%
O=C(O)[C@]1(O)C[C@@H](O)[C@@H](O)[C@H](O)C1,93.2%
N=C(N)NCCCCN,101%
c1cc(-c2cnn3cc(-c4ccc(N5CCNCC5)cc4)cnc23)c2cccnc2c1,94.3%
CN1CCC(CNc2ccc3ncc(-c4cccc(OC(F)(F)F)c4)n3n2)CC1,73.6%
NC(=O)C(=O)O,102%
CCOC(=O)O[C@]1(C(=O)OCCl)CC[C@H]2[C@@H]3CCC4=CC(=O)C=C[C@]4(C)[C@H]3[C@@H](O)C[C@@]21C,102%

# Series 3
# Cell line: Huh-7
# Concentration: 10 µM
# Time: 24 h
SMILES,viability [%]
O=C(O)CCCC[C@@H]1SC[C@@H]2NC(=O)N[C@@H]21,99.7
CC(C(=O)O)c1cccc(Oc2ccccc2)c1 (centres unmarked),102
OC[C@H]1O[C@H](O[C@]2(CCl)O[C@H](CCl)[C@@H](O)[C@@H]2O)[C@H](O)[C@@H](O)[C@H]1Cl,102
Cc1c(Nc2ncccc2C(=O)O)cccc1C(F)(F)F,97.3
CC[C@H]1OC(=O)[C@H](C)C(=O)[C@H](C)[C@@H](O[C@@H]2O[C@H](C)C[C@H](N(C)C)[C@H]2O)[C@](C)(OC)C[C@@H](C)C(=O)[C@H](C)[C@H]2N(CCCCn3cnc(-c4cccnc4)c3)C(=O)O[C@]12C,52.5
COc1c(C)c2c(c(O)c1C/C=C(\C)CCC(=O)O)C(=O)OC2,61.6
CC[C@H]1OC(=O)[C@H](C)[C@@H](O[C@H]2C[C@@](C)(OC)[C@@H](O)[C@H](C)O2)[C@H](C)[C@@H](O[C@@H]2O[C@H](C)C[C@H](N(C)C)[C@H]2O)[C@](C)(O)C[C@@H](C)CN(C)[C@H](C)[C@@H](O)[C@]1(C)O,103
C/C=C/c1ccc(OC)cc1,103
O=C(CCCN1CC=C(n2c(=O)[nH]c3ccccc32)CC1)c1ccc(F)cc1,93.6
Cc1c2oc3c(C)ccc(C(=O)N[C@@H]4C(=O)N[C@H](C(C)C)C(=O)N5CCC[C@H]5C(=O)N(C)CC(=O)N(C)[C@@H](C(C)C)C(=O)O[C@@H]4C)c3nc-2c(C(=O)N[C@@H]2C(=O)N[C@H](C(C)C)C(=O)N3CCC[C@H]3C(=O)N(C)CC(=O)N(C)[C@@H](C(C)C)C(=O)O[C@@H]2C)c(N)c1=O,32.9
NC[C@H]1O[C@H](O[C@H]2[C@H](O)[C@@H](O[C@H]3O[C@H](CO)[C@@H](O)[C@H](N)[C@H]3O)[C@H](N)C[C@@H]2N)[C@H](N)[C@@H](O)[C@@H]1O,97.5
O=C(OCc1ccccc1)c1ccccc1,102
Cc1ccc(-c2cc(C(F)(F)F)nn2-c2ccc(S(N)(=O)=O)cc2)cc1,93.6
O=C1OC(c2ccc(O)cc2)(c2ccc(O)cc2)c2ccccc21,97.3
COC(=O)[C@@H]1[C@H]2C[C@H]3c4[nH]c5ccccc5c4CCN3C[C@@H]2CC[C@@H]1O,98.5
COc1cc([C@@H]2c3cc4c(cc3[C@@H](O[C@@H]3O[C@@H]5CO[C@@H](C)O[C@H]5[C@H](O)[C@H]3O)[C@H]3COC(=O)[C@H]23)OCO4)cc(OC)c1O,51.9
CS(=O)(=O)c1ccc(C2=C(c3ccccc3)C(=O)OC2)cc1,96.9
NNCCc1ccccc1,97.3
CC(C)(CO)[C@@H](O)C(=O)NCCC(=O)O,98.2

# Series 4
# Target: Translocator protein (Tspo, Rattus norvegicus, UniProt P16257)
# Sequence of UniProt P16257 (whole entry, looked up): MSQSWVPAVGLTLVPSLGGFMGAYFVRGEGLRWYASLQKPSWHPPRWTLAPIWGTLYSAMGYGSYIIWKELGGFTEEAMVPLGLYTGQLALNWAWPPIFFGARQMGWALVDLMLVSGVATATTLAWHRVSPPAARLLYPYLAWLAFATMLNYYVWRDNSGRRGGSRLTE
# Observed: radioligand binding
# Method: radioligand displacement
# Concentration: 10 µM
SMILES,inhibition [%]
CC(C)(O)c1cncc(-c2nc3ccc(F)cc3n2C2CC2)c1,-38
Cn1nc(C(F)(F)F)cc1-c1cnc(N2CCc3cc(S(=O)(=O)Nc4c(F)cc(Cl)cc4F)cc(N4CCCC4=O)c32)nc1,-9.93
Cc1cc2c(-c3ccco3)cnc(N[C@H]3CCN(C)C[C@@H]3C(=O)NC3CCCCC3)c2[nH]c1=O,-8.18
c1ccc(C2CCN(c3cnc4c(N5CCOCC5)nccn34)CC2)cc1,-22.8
COCc1nc2cnc3cc(-c4c(C)noc4C)c(OC[C@H]4CCNC4)cc3c2n1[C@H](C)c1ccccc1,7.75
Cc1noc([C@H]2C[C@@H](c3ccc(C(F)(F)F)cc3)CN(C(=O)N3CCS(=O)(=O)C3)C2)n1,7.2
CN(C)C(=O)c1sc2nc(N3CCC(S(C)(=O)=O)CC3)cc(C(F)(F)F)c2c1N,27.9
CC(=O)N1CCC(c2ccc(C(=O)NC3=NCCN3)cc2C(F)(F)F)CC1,-2.17
CS(=O)(=O)N1CCCC(NC(=O)[C@H](CCC2CCCCC2)NC(=O)c2ccc(CNC(=O)c3cnc4ccccn34)cc2)C1 (some centres unmarked),13.2
N#CC1(c2ccccn2)CCN(Cc2cc(C(=O)N3CCCC3)c(=O)n3ccccc23)CC1,46.5
CS(=O)(=O)NCC[C@H](NC(=O)c1cncc2c1cnn2-c1ccc(F)cc1)c1ccnc(S(C)(=O)=O)c1,-5.04
CC(=O)Nc1nc(CN2CCC[C@H](Cc3cc(C)nc(C)c3)C2)cs1,11.2
CNC(=N)NCCC[C@H](NC(=O)[C@H](CC(C)C)NC(=O)NNC(=O)[C@H](Cc1ccccc1)NC(=O)[C@H](CO)NC(=O)[C@H](CC(N)=O)NC(=O)[C@@H](Cc1ccncc1)NC(=O)[C@H](N)Cc1ccc(O)cc1)C(=O)N[C@@H](Cc1ccccc1)C(N)=O,31.5
CO[C@H]1CC[C@H](CNc2ccc(S(=O)(=O)NC(=O)c3ccc(N4CCN(CC5=C(c6ccc(Cl)cc6)CC(C)(C)CC5)CC4)cc3Oc3cnc4[nH]ccc4c3)cc2[N+](=O)[O-])CC1,41.5
CCOc1ccc(S(=O)(=O)Nc2ccc(Cl)cc2C#Cc2cnc(C(=O)O)cc2OC)c2ncccc12,45
Cc1cc(-n2nc(Cc3cc(F)cc(C(F)(F)F)c3)nc2C)ccc1C(N)=O,7.23
CCOc1cc(N2C3COCC2CN(C(=O)[C@H]2C[C@H](O)CN2c2ccc(Cl)cc2)C3)ccc1Cl,54.2
O=C1c2ccc(Nc3ccc(F)cc3F)cc2CCc2ccc(OC[C@H](O)CO)cc21,-20.4

# For quick reference, copied from above (series 3):
SMILES,viability [%]
NC[C@H]1O[C@H](O[C@H]2[C@H](O)[C@@H](O[C@H]3O[C@H](CO)[C@@H](O)[C@H](N)[C@H]3O)[C@H](N)C[C@@H]2N)[C@H](N)[C@@H](O)[C@@H]1O,97.5
O=C(OCc1ccccc1)c1ccccc1,102
Cc1ccc(-c2cc(C(F)(F)F)nn2-c2ccc(S(N)(=O)=O)cc2)cc1,93.6
O=C1OC(c2ccc(O)cc2)(c2ccc(O)cc2)c2ccccc21,97.3
COC(=O)[C@@H]1[C@H]2C[C@H]3c4[nH]c5ccccc5c4CCN3C[C@@H]2CC[C@@H]1O,98.5
COc1cc([C@@H]2c3cc4c(cc3[C@@H](O[C@@H]3O[C@@H]5CO[C@@H](C)O[C@H]5[C@H](O)[C@H]3O)[C@H]3COC(=O)[C@H]23)OCO4)cc(OC)c1O,51.9
CS(=O)(=O)c1ccc(C2=C(c3ccccc3)C(=O)OC2)cc1,96.9
NNCCc1ccccc1,97.3
